Results of several laboratories.
Each line is one published result; not all experiments were run side by side. “And” joins repeats or separate records; there may be more than shown. ± gives the spread as reported.
HCRTR1: Orexin/Hypocretin receptor type 1 (HCRTR1, Homo sapiens, UniProt O43613)
UniProt O43613, sequence (whole entry, looked up): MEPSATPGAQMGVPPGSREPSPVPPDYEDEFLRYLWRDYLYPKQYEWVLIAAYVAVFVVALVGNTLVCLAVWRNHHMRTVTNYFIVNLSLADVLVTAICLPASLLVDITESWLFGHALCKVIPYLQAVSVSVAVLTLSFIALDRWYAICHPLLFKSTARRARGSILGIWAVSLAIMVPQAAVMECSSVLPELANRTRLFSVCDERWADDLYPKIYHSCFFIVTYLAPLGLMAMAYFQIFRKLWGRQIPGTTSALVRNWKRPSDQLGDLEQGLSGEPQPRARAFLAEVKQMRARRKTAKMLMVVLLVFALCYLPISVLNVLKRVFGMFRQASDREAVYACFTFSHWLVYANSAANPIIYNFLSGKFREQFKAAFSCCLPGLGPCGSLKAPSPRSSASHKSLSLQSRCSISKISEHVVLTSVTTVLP
PPIA: Peptidyl-prolyl cis-trans isomerase A (PPIA, Homo sapiens, UniProt P62937)
UniProt P62937, sequence (whole entry, looked up): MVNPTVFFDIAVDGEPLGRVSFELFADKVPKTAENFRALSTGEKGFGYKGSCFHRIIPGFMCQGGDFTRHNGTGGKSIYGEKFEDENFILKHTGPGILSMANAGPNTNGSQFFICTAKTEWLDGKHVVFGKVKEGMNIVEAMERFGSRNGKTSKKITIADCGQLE
LRP1 CR5 domain: LRP1, CR5 domain (Homo sapiens, UniProt Q07954)
UniProt Q07954, sequence (whole entry, looked up): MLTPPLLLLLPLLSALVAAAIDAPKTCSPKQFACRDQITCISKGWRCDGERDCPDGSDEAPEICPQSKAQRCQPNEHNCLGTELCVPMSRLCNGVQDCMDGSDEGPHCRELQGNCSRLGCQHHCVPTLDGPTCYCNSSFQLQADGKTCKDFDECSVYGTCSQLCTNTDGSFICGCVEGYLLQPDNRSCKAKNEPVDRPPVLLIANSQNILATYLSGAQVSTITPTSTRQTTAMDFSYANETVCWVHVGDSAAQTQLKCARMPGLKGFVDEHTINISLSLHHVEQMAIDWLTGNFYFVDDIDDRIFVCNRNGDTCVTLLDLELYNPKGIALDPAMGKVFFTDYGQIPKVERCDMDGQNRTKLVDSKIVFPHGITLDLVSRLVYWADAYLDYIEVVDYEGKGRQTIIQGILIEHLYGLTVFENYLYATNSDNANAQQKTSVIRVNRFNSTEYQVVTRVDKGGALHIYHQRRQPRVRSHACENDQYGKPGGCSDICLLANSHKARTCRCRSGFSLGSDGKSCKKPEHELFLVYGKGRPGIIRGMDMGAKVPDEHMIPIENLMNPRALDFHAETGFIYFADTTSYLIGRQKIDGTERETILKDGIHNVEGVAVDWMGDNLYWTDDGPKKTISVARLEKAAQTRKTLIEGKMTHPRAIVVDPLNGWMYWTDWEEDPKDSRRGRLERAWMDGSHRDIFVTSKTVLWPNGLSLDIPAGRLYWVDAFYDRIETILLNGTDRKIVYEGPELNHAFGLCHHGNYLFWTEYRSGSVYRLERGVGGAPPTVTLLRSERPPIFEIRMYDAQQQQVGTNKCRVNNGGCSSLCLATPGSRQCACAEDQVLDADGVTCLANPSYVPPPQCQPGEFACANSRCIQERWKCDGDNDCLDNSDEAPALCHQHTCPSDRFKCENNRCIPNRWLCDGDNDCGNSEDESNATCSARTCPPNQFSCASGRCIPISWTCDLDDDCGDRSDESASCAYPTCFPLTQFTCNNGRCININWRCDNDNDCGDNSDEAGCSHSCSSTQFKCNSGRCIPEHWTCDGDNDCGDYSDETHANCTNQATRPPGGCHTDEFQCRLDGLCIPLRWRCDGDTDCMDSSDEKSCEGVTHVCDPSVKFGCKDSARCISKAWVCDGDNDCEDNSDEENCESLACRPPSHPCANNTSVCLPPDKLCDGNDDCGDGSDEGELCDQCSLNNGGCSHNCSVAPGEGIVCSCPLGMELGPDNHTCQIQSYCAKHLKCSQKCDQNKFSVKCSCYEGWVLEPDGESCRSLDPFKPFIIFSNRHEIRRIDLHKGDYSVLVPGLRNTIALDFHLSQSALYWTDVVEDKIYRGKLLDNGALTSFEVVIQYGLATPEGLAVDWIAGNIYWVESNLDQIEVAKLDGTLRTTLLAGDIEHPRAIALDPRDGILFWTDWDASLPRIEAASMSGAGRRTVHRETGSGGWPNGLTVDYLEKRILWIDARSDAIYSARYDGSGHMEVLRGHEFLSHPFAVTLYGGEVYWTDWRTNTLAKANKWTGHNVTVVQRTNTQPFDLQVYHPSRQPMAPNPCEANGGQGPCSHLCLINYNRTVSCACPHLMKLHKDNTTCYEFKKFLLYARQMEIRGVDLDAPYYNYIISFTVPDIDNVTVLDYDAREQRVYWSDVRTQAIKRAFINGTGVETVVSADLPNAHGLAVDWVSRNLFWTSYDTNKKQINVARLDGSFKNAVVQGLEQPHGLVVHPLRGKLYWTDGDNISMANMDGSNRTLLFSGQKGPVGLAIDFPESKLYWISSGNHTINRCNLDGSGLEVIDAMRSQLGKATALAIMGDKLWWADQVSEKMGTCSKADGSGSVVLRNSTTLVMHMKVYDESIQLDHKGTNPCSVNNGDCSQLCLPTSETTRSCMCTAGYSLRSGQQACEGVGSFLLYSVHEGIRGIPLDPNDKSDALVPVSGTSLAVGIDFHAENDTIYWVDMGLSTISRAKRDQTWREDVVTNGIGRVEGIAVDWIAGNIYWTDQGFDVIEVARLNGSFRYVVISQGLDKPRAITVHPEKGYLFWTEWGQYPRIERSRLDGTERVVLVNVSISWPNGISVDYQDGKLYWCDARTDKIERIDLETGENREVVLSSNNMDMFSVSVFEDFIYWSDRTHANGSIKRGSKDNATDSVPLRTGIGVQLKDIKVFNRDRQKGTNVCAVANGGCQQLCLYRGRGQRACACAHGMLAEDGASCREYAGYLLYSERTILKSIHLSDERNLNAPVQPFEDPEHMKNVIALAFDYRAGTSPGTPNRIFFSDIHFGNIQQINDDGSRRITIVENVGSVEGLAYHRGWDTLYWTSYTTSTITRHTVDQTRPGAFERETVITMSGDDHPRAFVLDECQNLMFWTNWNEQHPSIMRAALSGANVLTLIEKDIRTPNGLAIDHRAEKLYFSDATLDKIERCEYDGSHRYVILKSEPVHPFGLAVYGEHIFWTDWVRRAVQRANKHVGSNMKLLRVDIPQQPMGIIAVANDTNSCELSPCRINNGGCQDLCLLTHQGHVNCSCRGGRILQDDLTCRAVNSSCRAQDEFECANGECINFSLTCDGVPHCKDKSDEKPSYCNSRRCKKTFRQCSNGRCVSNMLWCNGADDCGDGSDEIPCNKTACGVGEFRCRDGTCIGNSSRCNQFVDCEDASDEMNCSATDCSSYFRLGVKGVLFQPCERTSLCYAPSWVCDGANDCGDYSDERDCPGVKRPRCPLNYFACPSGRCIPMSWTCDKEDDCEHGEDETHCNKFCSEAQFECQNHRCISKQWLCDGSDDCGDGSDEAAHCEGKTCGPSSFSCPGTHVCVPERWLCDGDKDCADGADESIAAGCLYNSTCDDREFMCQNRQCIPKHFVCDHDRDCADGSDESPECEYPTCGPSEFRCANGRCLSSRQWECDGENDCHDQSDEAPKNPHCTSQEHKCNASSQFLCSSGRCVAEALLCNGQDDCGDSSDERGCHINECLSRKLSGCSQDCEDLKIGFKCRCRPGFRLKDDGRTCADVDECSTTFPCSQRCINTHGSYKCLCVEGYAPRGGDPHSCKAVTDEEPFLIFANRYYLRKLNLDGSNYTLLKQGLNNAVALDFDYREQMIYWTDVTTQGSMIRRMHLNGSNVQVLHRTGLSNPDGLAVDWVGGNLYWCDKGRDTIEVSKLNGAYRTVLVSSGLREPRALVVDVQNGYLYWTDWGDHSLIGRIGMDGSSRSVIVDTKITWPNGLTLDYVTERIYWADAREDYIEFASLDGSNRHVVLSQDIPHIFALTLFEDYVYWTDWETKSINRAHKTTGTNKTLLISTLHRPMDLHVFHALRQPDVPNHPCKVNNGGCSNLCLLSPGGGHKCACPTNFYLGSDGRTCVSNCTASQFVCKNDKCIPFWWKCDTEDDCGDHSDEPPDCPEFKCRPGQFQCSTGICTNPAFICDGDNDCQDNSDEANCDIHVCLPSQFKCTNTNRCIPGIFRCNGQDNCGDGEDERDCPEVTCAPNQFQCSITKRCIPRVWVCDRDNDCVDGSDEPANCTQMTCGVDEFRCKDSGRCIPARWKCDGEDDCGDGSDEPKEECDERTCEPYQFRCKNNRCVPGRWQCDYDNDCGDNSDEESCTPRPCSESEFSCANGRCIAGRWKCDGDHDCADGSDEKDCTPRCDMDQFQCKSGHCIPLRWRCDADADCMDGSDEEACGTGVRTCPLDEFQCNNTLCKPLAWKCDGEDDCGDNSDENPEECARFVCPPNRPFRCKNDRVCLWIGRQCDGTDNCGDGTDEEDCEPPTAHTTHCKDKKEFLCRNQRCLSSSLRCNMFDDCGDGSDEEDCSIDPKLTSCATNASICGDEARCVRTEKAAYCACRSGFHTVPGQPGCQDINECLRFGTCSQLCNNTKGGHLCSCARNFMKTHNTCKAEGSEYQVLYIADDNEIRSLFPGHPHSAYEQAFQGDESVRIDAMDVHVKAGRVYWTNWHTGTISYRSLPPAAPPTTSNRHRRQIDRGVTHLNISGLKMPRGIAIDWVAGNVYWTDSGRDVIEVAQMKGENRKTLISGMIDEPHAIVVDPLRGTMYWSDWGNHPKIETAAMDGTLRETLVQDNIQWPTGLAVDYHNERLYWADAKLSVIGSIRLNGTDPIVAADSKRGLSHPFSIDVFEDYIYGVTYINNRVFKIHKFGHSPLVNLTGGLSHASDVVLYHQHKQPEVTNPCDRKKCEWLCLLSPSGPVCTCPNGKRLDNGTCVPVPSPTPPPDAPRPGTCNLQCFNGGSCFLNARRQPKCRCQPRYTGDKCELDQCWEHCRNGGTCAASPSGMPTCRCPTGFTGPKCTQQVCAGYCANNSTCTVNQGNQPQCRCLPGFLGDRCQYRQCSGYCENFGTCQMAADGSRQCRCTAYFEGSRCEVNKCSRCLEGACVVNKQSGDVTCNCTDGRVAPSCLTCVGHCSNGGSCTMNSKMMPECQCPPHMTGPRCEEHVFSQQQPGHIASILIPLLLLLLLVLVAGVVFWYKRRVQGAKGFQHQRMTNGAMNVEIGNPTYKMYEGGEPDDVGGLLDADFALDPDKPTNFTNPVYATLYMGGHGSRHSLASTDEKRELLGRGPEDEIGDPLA
GRB2: Growth factor receptor-bound protein 2 (GRB2, Homo sapiens, UniProt P62993)
CYP2C8: Cytochrome P450 2C8 (CYP2C8, Homo sapiens, UniProt P10632)

| Molecule | target | test | system | conditions | Kd |
| --- | --- | --- | --- | --- | --- |
| CCCCCCCC/C=C\CCCCCCCC(=O)OC[C@H](COP(=O)(O)OCC(O)COP(=O)(O)OC[C@@H](COC(=O)CCCCCCC/C=C\CCCCCCCC)OC(=O)CCCCCCC/C=C\CCCCCCCC)OC(=O)CCCCCCC/C=C\CCCCCCCC (stereo partly drawn) | Mitochondrial import inner membrane translocase subunit TIM50, intermembrane space domain (TIM50, Saccharomyces cerevisiae, UniProt Q02776) | liposome cosedimentation |  | pH 7.4, room temperature, POPC liposomes | 10.5 µM |
| [I-].[K+] | SLC4A1 (Homo sapiens, UniProt P02730) | 36Cl exchange flux, inhibitor, Dixon plot | human red blood cells | pH 10 external, 0 °C, internal Cl 129 mM, CHES buffer | 4820 µM |
| 6-amino-6-deoxy-GlcNAc | NLRP1 (Homo sapiens, UniProt Q9C000) | binding, surface plasmon resonance |  | amine derivative tethered to SAM | 0.606 ± 0.078 µM |
| COc1ccc(CC2c3cc(OCCCCN(C)C)c(OC)cc3CCN2CC(=O)NCc2ccccc2)cc1OC (stereo not drawn) | HCRTR1 |  |  |  | 5.74 ± 3.6 µM |
| Cc1cc2nc3c(=O)[nH]c(=O)nc-3n(C[C@H](O)[C@H](O)[C@H](O)COP(=O)(O)O)c2cc1C | Probable flavin reductase (luxG, Photobacterium leiognathi, UniProt P29237) | binding |  | pH 8.0, 4 °C, upper limit estimate, together with: NADH 300 µM | < 2.5 µM |
| O=C(c1cc(-c2cc(F)cc([N+](=O)[O-])c2O)cc([N+](=O)[O-])c1O)C1CCc2ccccc21 (stereo not drawn) | PPIA | ligand displacement, FP |  |  | 0.54 µM |
| COc1cc2c(cc1-c1c(C)noc1C)[nH]c1nc(C)nc(-c3ccnc4ccccc34)c12 | non-BET bromodomain proteins | binding, BROMOscan |  | excluding CREBBP, EP300, CECR2 | > 4 µM |
| Aspartic acid methyl ester | LRP1 CR5 domain | tryptophan fluorescence titration |  | pH 5.5, CR5 domain, low ionic strength | 59000 ± 2000 µM |
| CSCC[C@H](NC(=O)[C@H](CC(C)C)NC(=O)[C@H](CCCCN)NC(=O)[C@H](CCCCN)NC(=O)[C@H](Cc1c[nH]cn1)NC(=O)[C@H](CCCNC(=N)N)NC(=O)[C@H](CO)NC(=O)[C@@H](NC(=O)[C@H](CO)NC(=O)[C@H](CCC(N)=O)NC(=O)CNC(=O)[C@H](CCCCN)NC(=O)[C@H](CCCCN)NC(=O)[C@H](CO)NC(=O)[C@H](CCCCN)NC(=O)[C@H](CC(C)C)NC(=O)[C@H](Cc1c[nH]cn1)NC(=O)[C@H](CO)NC(=O)[C@H](Cc1ccc(O)cc1)NC(C)=O)[C@@H](C)O)C(=O)N[C@@H](Cc1ccccc1)C(=O)N[C@@H](CCCCN)C(=O)N[C@H](C(=O)N[C@@H](CCC(=O)O)C(N)=O)[C@@H](C)O | Protein S100-B (Homo sapiens, UniProt P04271) | binding, isothermal titration calorimetry |  | high salt, together with: Ca2+, NaCl 120 mM | 20 ± 5 µM |
| phosphatidylinositol 3,4,5-trisphosphate | Src kinase-associated phosphoprotein 2, DM-PH domains (Skap2, Mus musculus, UniProt Q3UND0, K56A) | fluorescence polarization direct titration |  | pH 6.5, 21 °C, compound labelled with BODIPY TMR-X | 30 µM |
| CC[C@H](C)[C@H](NC(=O)[C@@H](N)CC(=O)O)C(=O)N1CCC[C@H]1C(=O)N1CCC[C@H]1C(=O)N1CCC[C@H]1C(=O)N[C@@H](CCCNC(=N)N)C(=O)N1CCC[C@H]1C(=O)N1CCC[C@H]1C(=O)N[C@@H](CCCCN)C(=O)N[C@@H](C)C(=O)N[C@@H](Cc1c[nH]cn1)C(=O)N1CCC[C@H]1C(=O)O | GRB2 | binding, ITC |  | pH 8 | 486 µM |
| Cc1cc(N(C)C)nc(Nc2ccc(NC(=O)Nc3ccccc3)cc2)n1 | Ezrin (EZR, Homo sapiens, UniProt P15311) | binding, SPR |  |  | 14.8 µM |
| COc1ccc(CC2c3cc(OC)c(OC)cc3CCN2CC(=O)N2CCC(c3ccccc3)CC2)cc1OC (stereo not drawn) | HCRTR1 |  |  |  | > 10 µM |
| CC(C)C[C@H](NC(=O)[C@H](CC(N)=O)NC(=O)[C@H](CCCNC(=N)N)NC(=O)[C@H](CC(=O)O)NC(=O)[C@@H](NC(=O)[C@H](C)NC(=O)[C@@H]1CCCN1C(=O)[C@@H]1CCCN1)C(C)C)C(=O)N[C@@H](CCCCN)C(=O)N1CCC[C@H]1C(=O)N[C@@H](CC(=O)O)C(=O)N[C@@H](CCCNC(=N)N)C(=O)O | GRB2 | binding, ITC |  | pH 8 | 85 µM |
| Nc1nc2ncc(CNc3ccc(C(=O)N[C@@H](CCC(=O)O)C(=O)O)cc3)nc2c(=O)[nH]1 | FOLR1 (Bos taurus, UniProt P02702) | binding, SPR |  |  | 11 µM |
| NC[C@@H]1O[C@H](O[C@H]2[C@@H](O)[C@H](O[C@@H]3[C@@H](O)[C@H](N)C[C@H](N)[C@H]3O[C@H]3O[C@H](CN)[C@@H](O)[C@H](O)[C@H]3N)O[C@@H]2CO)[C@H](N)[C@@H](O)[C@@H]1O | HIV-1 SL4 RNA stem-loop | binding, ESI-FTMS titration |  | pH 7.5 | 1 ± 0.2 µM |
| CN(CCOc1ccc(CC2SC(=O)NC2=O)cc1)c1ccccn1 (stereo not drawn) | CYP2C8 | ligand binding, equilibrium spectral binding | purified protein | pH 7.4, 25 °C, high-affinity site, 1% CHAPS | 0.002 ± 0.001 µM |
| COc1cccc2c1C(=O)c1c(O)c3c(c(O)c1C2=O)C[C@@](O)(C(C)=O)C[C@@H]3O[C@H]1C[C@H](N)[C@H](O)[C@H](C)O1 | HIV-1 SL4 RNA stem-loop | binding, ESI-FTMS titration |  | pH 7.5 | 12.1 ± 0.9 µM |
| COc1ccc(CC2c3cc(OC)c(OC)cc3CCN2CC(=O)Nc2cc(C)nc3ccccc23)cc1OC (stereo not drawn) | HCRTR1 |  |  |  | 4.51 ± 0.43 µM |
| CC[n+]1c(-c2ccccc2)c2cc(N)ccc2c2ccc(N)cc21 | HIV-1 SL4 RNA stem-loop | binding, ESI-FTMS titration |  | pH 7.5 | 12.7 ± 1.6 µM |
| CC(=O)O[C@H]1C(=O)[C@@]2(C)[C@H]([C@H](OC(=O)c3ccccc3)[C@]3(O)C[C@H](OC(=O)[C@H](O)[C@@H](NC(=O)c4ccccc4)c4ccccc4)C(C)=C1C3(C)C)[C@]1(OC(C)=O)CO[C@@H]1C[C@@H]2O | CYP2C8 | ligand binding, equilibrium spectral binding | purified protein | pH 7.4, 25 °C, high-affinity site, 1% CHAPS | 0.42 ± 0.06 µM |
| c1ccc2c(c1)cc1ccc3cccc4ccc2c1c34 | Cytochrome P450 1B1 (CYP1B1, Homo sapiens, UniProt Q16678) | binding, fluorescence |  | pH 7.4 | < 2.5 µM and 1 µM |
| COc1ccc(CC2c3cc(OCc4cccnc4)c(OC)cc3CCN2CC(=O)NCc2ccccc2)cc1OC (stereo not drawn) | HCRTR1 |  |  |  | 0.277 ± 0.075 µM |
| CC[C@H](C)[C@H](NC(=O)[C@H](Cc1ccc(O)cc1)NC(=O)[C@H](CCCCN)NC(=O)[C@H](CO)NC(=O)[C@@H](NC(=O)[C@H](Cc1c[nH]cn1)NC(=O)[C@H](CO)NC(=O)[C@@H]1CCCN1)[C@@H](C)CC)C(=O)N[C@@H](CC(C)C)C(=O)N[C@@H](CCCNC(=N)N)C(=O)N[C@@H](Cc1c[nH]c2ccccc12)C(=O)N[C@@H](CCCNC(=N)N)C(=O)N1CCC[C@H]1C(=O)N[C@@H](CCCCN)C(=O)O | Platelet-derived growth factor subunit B, homodimer (Homo sapiens, UniProt P01127) | binding, surface plasmon resonance |  |  | 0.2 µM |
| COC(=O)[C@H](CCCCN)NC(C)=O | LRP1, CR8 domain (Homo sapiens, UniProt Q07954) | binding, tryptophan fluorescence titration | isolated CR8 domain | pH 7.4, 298 K, ionic strength 0.02 | 1800 ± 190 µM |
| COc1ccc(CC2c3cc(OC)c(OC)cc3CCN2CC(=O)Nc2ccnc3c(F)cccc23)cc1OC (stereo not drawn) | HCRTR1 |  |  |  | 4.22 ± 1.1 µM |
| COC(=O)[C@@H](N)CCCCN | LRP1 CR5 domain | binding, tryptophan fluorescence titration | isolated CR5 domain | pH 7.4, 298 K, ionic strength 0.02 | 280 ± 10 µM |
| CC1=C(/C=C/C(C)=C/C=C/C(C)=C/C=C/C=C(C)/C=C/C=C(C)/C=C/C2=C(C)C[C@@H](O)CC2(C)C)C(C)(C)C[C@H](O)C1 | GSTP1 (Homo sapiens, UniProt P09211) | surface plasmon resonance |  | 25 °C, 1:1 binding model | 0.14 ± 0.02 µM |
| CCCCCC(=O)Nc1ccc(CNC(=O)CN2CCc3cc(OC)c(OC)cc3C2Cc2ccc(OC)c(OC)c2)cc1 (stereo not drawn) | HCRTR1 |  |  |  | > 10 µM |
| COC(=O)c1cc(Cc2ccc(NC(=O)c3ccc(Cl)cc3)c(C(=O)OC)c2)ccc1NC(=O)c1ccc(Cl)cc1 | PPIA | binding, SPR |  | pH 7.4 | 140 µM |

Repeated from above:
| Molecule | target | test | system | conditions | Kd |
| --- | --- | --- | --- | --- | --- |
| COc1ccc(CC2c3cc(OC)c(OC)cc3CCN2CC(=O)Nc2cc(C)nc3ccccc23)cc1OC (stereo not drawn) | HCRTR1 |  |  |  | 4.51 ± 0.43 µM |
| CC[n+]1c(-c2ccccc2)c2cc(N)ccc2c2ccc(N)cc21 | HIV-1 SL4 RNA stem-loop | binding, ESI-FTMS titration |  | pH 7.5 | 12.7 ± 1.6 µM |
| CC(=O)O[C@H]1C(=O)[C@@]2(C)[C@H]([C@H](OC(=O)c3ccccc3)[C@]3(O)C[C@H](OC(=O)[C@H](O)[C@@H](NC(=O)c4ccccc4)c4ccccc4)C(C)=C1C3(C)C)[C@]1(OC(C)=O)CO[C@@H]1C[C@@H]2O | CYP2C8 | ligand binding, equilibrium spectral binding | purified protein | pH 7.4, 25 °C, high-affinity site, 1% CHAPS | 0.42 ± 0.06 µM |
| c1ccc2c(c1)cc1ccc3cccc4ccc2c1c34 | Cytochrome P450 1B1 (CYP1B1, Homo sapiens, UniProt Q16678) | binding, fluorescence |  | pH 7.4 | < 2.5 µM and 1 µM |
| COc1ccc(CC2c3cc(OCc4cccnc4)c(OC)cc3CCN2CC(=O)NCc2ccccc2)cc1OC (stereo not drawn) | HCRTR1 |  |  |  | 0.277 ± 0.075 µM |
